Measurements from different studies.
Compare with care: the assays were run in different laboratories.
Organism: Escherichia coli

Compound	test	test system	conditions	MIC
CC(C)C[C@@H]1NC(=O)[C@H](CCCNC(=N)N)NC(=O)[C@H](CCCNC(=N)N)NC(=O)[C@@H](NC(=O)[C@@H](N)CCC(=O)O)CSSC[C@@H](C(=O)N[C@@H](CCCNC(=N)N)C(=O)NCC(=O)N[C@@H](CCCNC(=N)N)C(N)=O)NC(=O)[C@H](Cc2ccc(O)cc2)NC(=O)[C@H]([C@@H](C)O)NC(=O)[C@H](C(C)C)NC(=O)[C@H](Cc2c[nH]c3ccccc23)NC(=O)[C@H](CCCNC(=N)N)NC(=O)CNC(=O)[C@H](CCCCN)NC(=O)[C@H](Cc2ccc(O)cc2)NC(=O)[C@H](Cc2c[nH]c3ccccc23)NC1=O	bacterial growth, broth dilution, OD600	DH5α, LB medium	16 h, 37 °C	> 100 µM
CCn1ccn(CC)c1=[Se]	broth microdilution	carbapenem-resistant BAA-2140	24 h	> 40 µM
CC[C@H](C)[C@H](NC(=O)[C@@H](CCCNC(=N)N)NC(=O)[C@H](CCCNC(=N)N)NC(=O)[C@H](CCCCN)NC(=O)[C@H](Cc1c[nH]c2ccccc12)NC(=O)[C@H](CCCNC(=N)N)NC(=O)[C@@H]1CCCN1C(=O)[C@H](CCCNC(=N)N)NC(=O)[C@@H]1CCCN1C(=O)[C@H](CC(C)C)NC(=O)[C@H](Cc1ccc(O)cc1)NC(=O)[C@@H]1CCCN1C(=O)[C@@H]1CCCN1C(=O)[C@H](CCCCN)NC(=O)[C@H](CC(=O)O)NC(=O)[C@@H](N)C(C)C)C(=O)N[C@@H](Cc1ccc(O)cc1)C(=O)N[C@@H](CC(N)=O)C(=O)N[C@H](CCCNC(=N)N)C(N)=O	broth microdilution	ATCC 25922	18 h, 37 °C, 25% MHB2	16 µg/mL
CC(C)C[C@@H](NC(=O)[C@@H](CCCNC(=N)N)NC(=O)[C@H](N)CCCNC(=N)N)C(=O)N[C@H](CC(C)C)C(=O)N[C@H](CCCNC(=N)N)C(=O)N[C@H](CCCCN)C(=O)N[C@H](CC(C)C)C(=O)N[C@H](CCCCN)C(=O)NCC(=O)N[C@H](CCCCN)C(=O)N[C@H](CCCCN)C(=O)N[C@H](CC(C)C)C(=O)N[C@H](Cc1ccc(O)cc1)C(=O)N[C@H](CC(C)C)C(=O)N[C@H](Cc1ccc(O)cc1)C(=O)N[C@H](Cc1ccccc1)C(=O)N[C@H](CCCCN)C(=O)N[C@H](CC(C)C)C(=O)N[C@H](CCC(N)=O)C(=O)N[C@H](CC(C)C)C(=O)N[C@H](CC(C)C)C(=O)N[C@H](CCCCN)C(=O)N[C@H](CCCCN)C(N)=O	broth microdilution	KCTC 1682, Mueller-Hinton broth	added: NH4Cl 6 µM	8 µM
CC(C)C[C@@H](NC(=O)[C@H](NC(=O)[C@@H](CCCCN)NC(=O)[C@@H](CCCCN)NC(=O)[C@@H](CC(C)C)NC(=O)[C@@H](Cc1c[nH]c2ccccc12)NC(=O)[C@@H](CCCCN)NC(=O)[C@@H](CC(C)C)NC(=O)[C@@H](CC(C)C)NC(=O)[C@@H](CCCCN)NC(=O)[C@@H](CCCCN)NC(=O)[C@H](N)C(C)C)C(C)C)C(N)=O	–	–	24 h, 37 °C, Mueller-Hinton broth, NH4Cl 6 µM	8 µM
CN[C@@H]1[C@H](O)[C@H](NC)[C@H]2O[C@]3(O)[C@H](O[C@@H]2[C@H]1O)O[C@H](C)C[C@H]3NC(=O)CNC(C)(C)C	microbial growth, broth dilution	K12	–	> 200 µg/mL
C#CCOc1ccc(CN[C@@]2(C)C[C@H](O[C@H]3[C@H](Oc4c5cc6cc4Oc4ccc(cc4Cl)[C@@H](O)[C@@H](NC(=O)[C@@H](CC(C)C)NC)C(=O)N[C@@H](CC(N)=O)C(=O)N[C@H]6C(=O)N[C@H]4C(=O)N[C@H](C(=O)N[C@H](C(=O)O)c6cc(O)cc(O)c6-c6cc4ccc6O)[C@H](O)c4ccc(c(Cl)c4)O5)O[C@H](CO)[C@@H](O)[C@@H]3O)O[C@@H](C)[C@H]2O)cc1OC	broth microdilution	ATCC 35218, cation-adjusted Mueller-Hinton broth	18 to 20 h, 37 °C, 0.002% polysorbate 80	> 128 µg/mL
CC(C)C[C@@H]1NC(=O)[C@H](CCCCN)NC(=O)C(N)CCC=CCCCC(C(N)=O)NC(=O)[C@H](CCCCN)NC(=O)[C@H](CC(C)C)NC(=O)[C@H](CCCCN)NC(=O)C2CCCC=CCCC(NC(=O)[C@H](CCCCN)NC1=O)C(=O)N[C@@H](CCCCN)C(=O)N1CCC[C@@H]1C(=O)NCC(=O)N[C@@H](CCCCN)C(=O)N2 (some centres unmarked)	broth microdilution	ATCC 25922, Mueller-Hinton broth	18 h, 37 °C	64 µM
CC[C@H](C)[C@H](NC(=O)[C@@H](CCCNC(=N)N)NC(=O)[C@H](CCCNC(=N)N)NC(=O)[C@@H]1CCCN1C(=O)[C@@H]1CCCN1C(=O)[C@H](CCCNC(=N)N)NC(=O)[C@H](Cc1c[nH]c2ccccc12)NC(=O)[C@H](CCCNC(=N)N)NC(=O)[C@@H]1CCCN1C(=O)[C@H](CC(C)C)NC(=O)[C@H](Cc1ccc(O)cc1)NC(=O)[C@@H]1CCCN1C(=O)[C@@H]1CCCN1C(=O)[C@H](CCCCN)NC(=O)[C@H](CC(=O)O)NC(=O)[C@@H](N)C(C)C)C(=O)N[C@@H](Cc1ccc(O)cc1)C(=O)N[C@@H](CC(N)=O)C(=O)N[C@H](CCCNC(=N)N)C(N)=O	broth microdilution	BW25113	18 h, 37 °C, 25% MHB2	8 µg/mL
CC(C)[C@H](NC(=O)[C@H](Cc1ccc(O)cc1)NC(=O)[C@H](CS)NC(=O)[C@@H](NC(=O)[C@H](CCCNC(=N)N)NC(=O)[C@H](Cc1ccccc1)NC(=O)[C@H](CS)NC(=O)[C@H](Cc1c[nH]c2ccccc12)NC(=O)[C@@H](N)CCCNC(=N)N)C(C)C)C(=O)NCC(=O)N[C@@H](Cc1ccccc1)C(=O)N[C@@H](CS)C(=O)N[C@@H](Cc1ccc(O)cc1)C(=O)N[C@@H](Cc1c[nH]c2ccccc12)C(=O)N[C@@H](CCCCN)C(=O)N[C@@H](CS)C(=O)N[C@@H](CCCNC(=N)N)C(=O)O	broth microdilution	K88, Mueller-Hinton broth	37 °C	4.39 µg/mL
CC[C@H](C)[C@H](NC(=O)[C@@H](CCCNC(=N)N)NC(=O)[C@H](CCCNC(=N)N)NC(=O)[C@H](CO)NC(=O)[C@H](Cc1c[nH]c2ccccc12)NC(=O)[C@H](CCCNC(=N)N)NC(=O)[C@@H]1CCCN1C(=O)[C@H](CCCNC(=N)N)NC(=O)[C@@H]1CCCN1C(=O)[C@H](CC(C)C)NC(=O)[C@H](Cc1ccc(O)cc1)NC(=O)[C@@H]1CCCN1C(=O)[C@@H]1CCCN1C(=O)[C@H](CCCCN)NC(=O)[C@H](CC(=O)O)NC(=O)[C@@H](N)C(C)C)C(=O)N[C@@H](Cc1ccc(O)cc1)C(=O)N[C@@H](CC(N)=O)C(=O)N[C@H](CCCNC(=N)N)C(N)=O	broth microdilution	ATCC 25922	18 h, 37 °C, 25% MHB2	4 µg/mL
CO[C@@H](C(N)=O)[C@H](NC(=O)c1ccc(NC(=O)[C@@H](N)Cc2ccc(O)cc2)cc1)C(=O)Nc1ccc(C(=O)Nc2ccc(C(=O)Nc3ccc(C(=O)O)cc3)c(O)c2OC(C)C)cc1	–	glutathione S-transferase-like clone	16 h, 37 °C	1 µg/mL
CC[C@H](C)[C@H](NC(=O)[C@H](CCCCN)NC(=O)[C@H](CCCNC(=N)N)NC(=O)[C@H](Cc1c[nH]c2ccccc12)NC(=O)[C@@H](NC(=O)[C@H](CC(N)=O)NC(=O)[C@H](CCCNC(=N)N)NC(=O)[C@@H](NC(=O)[C@H](CCCNC(=N)N)NC(=O)[C@H](CC(N)=O)NC(=O)[C@H](CCCNC(=N)N)NC(=O)[C@H](CC(C)C)NC(=O)[C@H](CCCNC(=N)N)NC(=O)[C@H](CCCNC(=N)N)NC(=O)[C@H](Cc1ccccc1)NC(=O)[C@H](CCCNC(=N)N)NC(=O)CN)[C@@H](C)CC)[C@@H](C)CC)C(=O)NCC(=O)N1CCC[C@H]1C(=O)N[C@H](C(=O)N[C@@H](C)C(=O)NCC(=O)N1CCC[C@H]1C(=O)N[C@@H](CC(C)C)C(=O)N[C@H](C(=O)N[C@@H](CO)C(=O)N[C@@H](CCCNC(=N)N)C(=O)N[C@@H](Cc1ccccc1)C(=O)NCC(=O)O)[C@@H](C)CC)[C@@H](C)CC	CLSI agar dilution	ATCC 25922	20 h, 37 °C	16 µg/mL
O=C(O)CN(CCOCCOCCN(CC(=O)O)CC(=O)O)CC(=O)O	–	NDM-1 producing	compound alone	> 2000 µM
CC[C@H](C)[C@H](NC(=O)[C@@H](NC(=O)[C@H](CCCCN)NC(=O)[C@H](CCC(N)=O)NC(=O)[C@@H](NC(=O)[C@H](Cc1c[nH]c2ccccc12)NC(=O)[C@H](CCCCN)NC(=O)[C@H](CCCCN)NC(=O)[C@H](CC(C)C)NC(=O)[C@H](CCCNC(=N)N)NC(=O)[C@H](Cc1ccccc1)NC(=O)[C@@H](N)C(C)C)[C@@H](C)CC)C(C)C)C(N)=O	–	–	24 h, 37 °C, Mueller-Hinton broth, KCl 4.5 mM	32 µM
CC[C@H](C)[C@H](NC(=O)[C@@H](CCCNC(=N)N)NC(=O)[C@H](CCCNC(=N)N)NC(=O)[C@@H]1CCCN1C(=O)[C@@H]1CCCN1C(=O)[C@H](CCCNC(=N)N)NC(=O)[C@@H]1CCCN1C(=O)[C@H](CCCNC(=N)N)NC(=O)[C@@H]1CCCN1C(=O)[C@@H](NC(=O)[C@H](Cc1ccc(O)cc1)NC(=O)[C@@H]1CCCN1C(=O)[C@@H]1CCCN1C(=O)[C@H](CCCCN)NC(=O)[C@H](CC(=O)O)NC(=O)[C@@H](N)C(C)C)C(C)(C)C)C(=O)N[C@@H](Cc1ccc(O)cc1)C(=O)N[C@@H](CC(N)=O)C(=O)N[C@H](CCCNC(=N)N)C(N)=O	broth microdilution	ATCC 25922	18 h, 37 °C, 25% MHB2	16 µg/mL
CC(C)Oc1ccc(B(O)O)c(F)n1	bacterial growth	TEM-3 ESBL clinical isolate	without cefotaxime	1020 µg/mL
CC1(C)[C@H](NC(=O)/C(=N\OCC(=O)N2CCC(C(=O)O)CC2)c2csc(N)n2)C(=O)N1OS(=O)(=O)O	agar dilution	CDC 1001728, NDM-1	–	16 µg/mL
CC[C@H](C)[C@H](NC(=O)[C@@H](CCCNC(=N)N)NC(=O)[C@H](CCCNC(=N)N)NC(=O)[C@@H]1CCCN1C(=O)[C@@H]1CCCN1C(=O)[C@H](CCCNC(=N)N)NC(=O)[C@@H]1CCCN1C(=O)[C@H](CCCNC(=N)N)NC(=O)[C@@H]1CCCN1C(=O)[C@H](CC(C)C)NC(=O)[C@H](Cc1c[nH]c2ccccc12)NC(=O)[C@@H]1CCCN1C(=O)[C@@H]1CCCN1C(=O)[C@H](CCCCN)NC(=O)[C@H](CC(=O)O)NC(=O)[C@@H](N)C(C)C)C(=O)N[C@@H](Cc1ccc(O)cc1)C(=O)N[C@@H](CC(N)=O)C(=O)N[C@H](CCCNC(=N)N)C(N)=O	broth microdilution	ATCC 25922	18 h, 37 °C, 25% MHB2	8 µg/mL
CC(=O)N[C@H](Cc1ccc(C(F)(F)F)cc1)C(=O)N[C@@H](CCN)C(=O)N[C@H](C(=O)N[C@@H](CCN)C(=O)N[C@H]1CCNC(=O)[C@H]([C@@H](C)O)NC(=O)[C@H](CCN)NC(=O)[C@H](CCN)NC(=O)[C@H](CC(C)C)NC(=O)[C@@H](Cc2ccccc2)NC(=O)[C@H](CCN)NC1=O)[C@@H](C)O	broth microdilution	mcr-1, colistin-resistant	–	4 to 8 µg/mL

A few entries again:
Compound	test	test system	conditions	MIC
CC[C@H](C)[C@H](NC(=O)[C@@H](CCCNC(=N)N)NC(=O)[C@H](CCCNC(=N)N)NC(=O)[C@H](CCCCN)NC(=O)[C@H](Cc1c[nH]c2ccccc12)NC(=O)[C@H](CCCNC(=N)N)NC(=O)[C@@H]1CCCN1C(=O)[C@H](CCCNC(=N)N)NC(=O)[C@@H]1CCCN1C(=O)[C@H](CC(C)C)NC(=O)[C@H](Cc1ccc(O)cc1)NC(=O)[C@@H]1CCCN1C(=O)[C@@H]1CCCN1C(=O)[C@H](CCCCN)NC(=O)[C@H](CC(=O)O)NC(=O)[C@@H](N)C(C)C)C(=O)N[C@@H](Cc1ccc(O)cc1)C(=O)N[C@@H](CC(N)=O)C(=O)N[C@H](CCCNC(=N)N)C(N)=O	broth microdilution	ATCC 25922	18 h, 37 °C, 25% MHB2	16 µg/mL
CC(C)C[C@@H](NC(=O)[C@@H](CCCNC(=N)N)NC(=O)[C@H](N)CCCNC(=N)N)C(=O)N[C@H](CC(C)C)C(=O)N[C@H](CCCNC(=N)N)C(=O)N[C@H](CCCCN)C(=O)N[C@H](CC(C)C)C(=O)N[C@H](CCCCN)C(=O)NCC(=O)N[C@H](CCCCN)C(=O)N[C@H](CCCCN)C(=O)N[C@H](CC(C)C)C(=O)N[C@H](Cc1ccc(O)cc1)C(=O)N[C@H](CC(C)C)C(=O)N[C@H](Cc1ccc(O)cc1)C(=O)N[C@H](Cc1ccccc1)C(=O)N[C@H](CCCCN)C(=O)N[C@H](CC(C)C)C(=O)N[C@H](CCC(N)=O)C(=O)N[C@H](CC(C)C)C(=O)N[C@H](CC(C)C)C(=O)N[C@H](CCCCN)C(=O)N[C@H](CCCCN)C(N)=O	broth microdilution	KCTC 1682, Mueller-Hinton broth	added: NH4Cl 6 µM	8 µM
